{"data": "Assay results of several laboratories", "note": "Each line is one published result; not all experiments were run side by side. Numbers after ± are the reported error."}
{"Structure (SMILES)": "Cc1cnc(N2CC3(CCOCC3)C2)c(C(=O)Nc2ccc(C(=O)N3CCc4cc(C(=O)Nc5c(C)cccc5F)sc4-c4ccccc43)cc2)c1", "system": "human, nasal epithelial lining fluid", "setting": "inhaled, 5 mg twice daily, 108 h", "quantity": "concentration", "result": "11000 ng/mL"}
{"Structure (SMILES)": "O=C(Nc1nc2cccc(-c3ccc(CN4CCS(=O)(=O)CC4)cc3)n2n1)C1CC1", "test": "measured: nervous system disorders", "system": "human rheumatoid arthritis patients", "setting": "oral, 75 mg once daily, 4 weeks, regardless of relatedness", "quantity": "treatment-emergent adverse events", "result": "4.5%"}
{"Structure (SMILES)": "[18F]c1ccc(-c2ccc3c(c2)[nH]c2ccncc23)cn1", "test": "ex vivo biodistribution", "system": "APP/PS1 mouse, AD model, muscle", "setting": "intravenous, 30 min", "quantity": "SUV", "result": "0.209 ± 0.04"}
{"Structure (SMILES)": "COc1ccc2c(c1)CN(C(=O)CCN1CCC(Cc3ccccc3)CC1)CC[S@@+]2[O-]", "system": "healthy male volunteers, urine", "setting": "intravenous, 0.15 mg/kg", "scale": "baseline: dose", "quantity": "urinary excretion", "result": "7.68 ± 2.68%"}
{"Structure (SMILES)": "C[C@@H](Oc1ccc(S(C)(=O)=O)cc1C(=O)N1C[C@@H]2C[C@]2(c2cc(C(F)(F)F)on2)C1)C(F)(F)F", "system": "young healthy humans, urine", "setting": "oral, 50 mg, 0 to 24 h, single dose", "quantity": "fraction excreted in urine", "result": "2.09%"}
{"Structure (SMILES)": "O=C(CCCN1CCC(O)(c2ccc(Cl)cc2)CC1)c1ccc(F)cc1", "system": "male Hartley guinea pig, anaesthetized", "setting": "intravenous, 0.01 mg/kg, baseline before infusion", "quantity": "QTc interval", "result": "343 ± 0.4 ms"}
{"Structure (SMILES)": "NC1(C(=O)N[C@@H](CCO)c2ccc(Cl)cc2)CCN(c2nc[nH]c3nccc2-3)CC1", "system": "metastatic CRPC patients", "setting": "320 mg b.i.d., any grade, treatment-related, with: enzalutamide 160 mg daily", "quantity": "incidence of weight decreased", "result": "0%"}
{"Structure (SMILES)": "Cl.[2H]C([2H])([2H])CC(=O)c1cnc(NC(=O)C2CC2)cc1Nc1cccc(-c2ncn(C([2H])([2H])[2H])n2)c1OC", "test": "geometric mean", "system": "human", "setting": "oral, 20 mg once daily, day 7, fasted, liquid, multiple dose", "quantity": "AUC(0-inf)", "result": "1460 ng·h/mL"}
{"Structure (SMILES)": "O=C(O)CCC(=O)O.[2H]C([2H])([2H])Oc1cc(C)c2[nH]ccc2c1CN1CC[C@@H](C2CC2)C[C@H]1c1ccc(C(=O)O)cc1", "test": "multiple ascending dose", "system": "healthy Chinese subjects", "setting": "200 mg once daily", "quantity": "subjects with muscle pain TEAE", "result": "12.5%"}
{"Structure (SMILES)": "Cn1cnc2c(F)c(Nc3ccc(Br)cc3Cl)c(C(=O)NOCCO)cc21", "test": "population PK model", "system": "human, plasma", "setting": "oral, nonlinear absorption model, fed", "quantity": "Vmax of absorption", "result": "35100 nmol/h"}
{"Structure (SMILES)": "O=C(O)CCCOc1ccc([18F])cc1-c1cc(-c2ccccc2C(F)(F)F)n(-c2ccccc2)n1", "test": "gamma counting", "system": "male ddY mice, liver", "setting": "intravenous, 2.1 MBq, 30 min", "quantity": "radioactivity uptake", "result": "0.92 ± 0.08 SUV"}
{"Structure (SMILES)": "O=C1NCCc2nc(OCc3cccc(F)c3)ccc21", "test": "measured: loss of Escape", "system": "Sprague-Dawley rat male", "setting": "oral, 100 mg/kg, 4 h", "scale": "direction not given", "quantity": "Irwin test score", "result": 0.4}
{"Structure (SMILES)": "O=c1[nH]ccn1-c1ccc(NS(=O)(=O)c2cc(Cl)cc(Cl)c2O)cc1", "test": "colloidal aggregate formation, dynamic light scattering", "system": "50 mM potassium phosphate buffer", "setting": "200 µM, pH 7.0, 1% DMSO", "scale": "higher = more aggregation", "quantity": "DLS scattered light intensity", "result": "558000 counts/s"}
{"Structure (SMILES)": "CCc1ccc(C(=O)Oc2ccc(C#N)c(F)c2)cc1", "test": "measured: compound", "system": "human pregnant women, female fetuses, maternal serum", "setting": "dose not given, paired maternal-cord samples, mean", "quantity": "concentration", "result": "3.49 ng/mL"}
{"Structure (SMILES)": "C[C@@H](Nc1cc(F)cc(F)c1)c1cc(C(=O)N(C)C)cc2c(=O)cc(N3CCOCC3)oc12", "system": "human, plasma", "setting": "oral, 360 mg, day 1 single dose", "quantity": "Cmax geometric mean", "result": "1950 ng/mL"}
{"Structure (SMILES)": "CNCc1ccc(-c2[nH]c3cc(F)cc4c3c2CCNC4=O)cc1", "system": "patients", "setting": "oral, 360 mg twice daily, all grades", "quantity": "asthenia/fatigue incidence", "result": "62.5%"}
{"Structure (SMILES)": "N#Cc1ccc2c(c1)[C@H]1CCCN(C(=O)c3ccc4[nH]cnc4c3)[C@H]1C2", "system": "human, plasma", "setting": "20 mg once daily, day 28", "quantity": "pre-dose plasma concentration", "result": "479 nmol/L"}
{"Structure (SMILES)": "COc1ccnc(C(=O)NCC(=O)O)c1O", "test": "soil adsorption", "system": "tested soils", "setting": "geometric mean", "quantity": "Freundlich coefficient KF", "result": "9.56 mL/g"}
{"Structure (SMILES)": "CC(=O)N[C@@H](CCCNC(=N)N)C(=O)N[C@H]1CSSC[C@@H](C(N)=O)NC(=O)[C@H](Cc2c[nH]c3ccccc23)NC(=O)[C@H](CCCNC(=N)N)NC(=O)[C@@H](Cc2ccccc2)NC(=O)[C@H](Cc2c[nH]cn2)NC(=O)[C@@H](C)NC1=O", "system": "telemetered cynomolgus monkeys", "setting": "subcutaneous, 3 mg/kg", "quantity": "body temperature", "result": "decreased"}
{"Structure (SMILES)": "CC(=O)N(C)[C@H]1CCN(C(=O)c2cnc3c(c2)C[C@](C)(c2ccc(F)cc2)N3)C1", "system": "healthy male subjects, multiple rising dose", "setting": "oral, 30 mg once daily", "quantity": "severe adverse events", "result": "12.5%"}
{"Structure (SMILES)": "CO[C@@H]1[C@H](O)[C@@H](CO)O[C@H]1n1c([N+](=O)[O-])nc2c(=O)[nH]c(N)nc21", "test": "depurination, RP-HPLC", "system": "citrate-phosphate buffer 0.5 mM", "setting": "105 min, pH 7, 37 °C", "quantity": "nucleoside remaining fraction", "result": 0.927}
{"Structure (SMILES)": "CCn1ncc2c1-c1cnc(N)c(c1)O[C@H](C)c1cc(F)ccc1-c1nn(C)nc1C2", "system": "female athymic nude mice, sample B PDX", "setting": "oral, 15 mg/kg once daily for 1 days, 1 h", "quantity": "unbound plasma concentration", "result": "1600 ± 104 nM"}
{"Structure (SMILES)": "COc1cc2c3c(n(CCCNCCO)c(=O)c2cc1OC)-c1nc2c(cc1C3=O)OCO2", "system": "male CD1 mouse, plasma", "setting": "intravenous, 1 mg/kg", "quantity": "Vss", "result": "9.62 L/kg"}
{"Structure (SMILES)": "CNC(=O)c1ccc(-c2cnc3ncc(Cc4ccc5ncccc5c4)n3n2)cc1F", "test": "measured: Dyspnea, all grades", "system": "cancer patients", "setting": "oral, dose not given, dose escalation, any causality", "quantity": "patients with adverse event", "result": "13%"}
{"Structure (SMILES)": "Cc1ccc([C@@H]2O[C@H](CO)[C@@H](O)[C@H](O)[C@H]2O)cc1Cc1ccc(-c2ccc(F)cc2)s1", "system": "Japanese type 2 diabetes patients", "setting": "200 mg, day 5, 24 h urine collection", "scale": "baseline: baseline", "quantity": "urinary chloride excretion change", "result": "-14.8 mEq"}
{"Structure (SMILES)": "CCn1cc(C(=O)N2CCOCC2)c(=O)c2cc(NC3Cc4ccccc4C3)cnc21", "system": "human, fed", "setting": "oral suspension, 300 mg/day twice daily, day 8, arithmetic mean", "quantity": "AUC(0-12)", "result": "9900 ng·h/mL"}
{"Structure (SMILES)": "COc1nnc2ccc(N3CCC(c4ccc(OCCN5CCN(C)C(=O)[C@H]5C)cc4)CC3)nn12", "system": "cancer patients, urine", "setting": "oral, dose not given, time not given", "scale": "baseline: dose", "quantity": "urinary recovery of unchanged drug", "result": "< 2%"}
{"Structure (SMILES)": "C[C@H](O)c1cc(C(=O)N[C@@H](C)Cn2ccc(-c3ccc(C#N)c(Cl)c3)n2)n[nH]1", "system": "healthy male human, plasma", "setting": "intravenous infusion, 100 µg 14C-labelled, 15 min infusion, microtracer, geometric mean", "quantity": "AUC(0-tlast)", "result": "9060 h·pg eq/mL"}
{"Structure (SMILES)": "Cc1[nH]nc(S(=O)(=O)NCc2ccc(Br)cc2C(F)(F)F)c1C(=O)O", "test": "colloidal aggregate formation, dynamic light scattering", "system": "50 mM potassium phosphate buffer", "setting": "200 µM, pH 7.0, 1% DMSO", "scale": "higher = more aggregation", "quantity": "DLS scattered light intensity", "result": "8.88e+06 counts/s"}
{"Structure (SMILES)": "CCN1/C(=C/C(C)=O)Sc2ccc(F)cc21", "system": "cynomolgus monkey", "setting": "oral, 30 mg/kg, 24 h post-dose", "scale": "baseline: pre-dose", "quantity": "heart rate change", "result": "90.9 ± 13.4%"}
{"Structure (SMILES)": "CCc1cc(C(=O)NC)c2nccc(N3CCc4c(cc(Cn5ccnc5)cc4-c4cn(C)nc4C(F)(F)F)C3=O)c2c1", "system": "Sprague Dawley rat", "setting": "oral, 100 mg/kg once daily, 7 days", "scale": "baseline: vehicle", "quantity": "kidney weight change", "result": "6.48%"}
{"Structure (SMILES)": "O=C(c1nc2n(n1)[C@H](c1ccccc1)C[C@@H]2F)C1CC1", "system": "human, fasted", "setting": "oral, 75 mg single dose, mean", "quantity": "fraction excreted fe(0-72 h)", "result": "0.18%"}
{"Structure (SMILES)": "NCCONC(=O)[C@@H]1CC[C@@H]2CN1C(=O)N2OS(=O)(=O)O", "system": "healthy Chinese male subjects", "setting": "intravenous, 1 g", "quantity": "number of Mild TRAE events", "result": 3}
{"Structure (SMILES)": "O=S(=O)(NCc1cnc(-n2cccn2)s1)c1cccc(Cl)c1O", "test": "colloidal aggregate formation, dynamic light scattering", "system": "50 mM potassium phosphate buffer", "setting": "200 µM, pH 7.0, 1% DMSO", "scale": "higher = more aggregation", "quantity": "DLS scattered light intensity", "result": "634000 counts/s"}
{"Structure (SMILES)": "CCOc1ccc2nc(NC(=O)c3ccc4ncsc4c3)sc2c1", "test": "haemolysis", "system": "sheep erythrocytes", "setting": "1 h, pH 7.5", "quantity": "HC50", "result": "> 128 µg/mL"}
{"Structure (SMILES)": "O=C(O)CC[C@H](NC(=O)N[C@@H](CCCCNC(=O)[C@H](Cc1ccc2ccccc2c1)NC(=O)[C@H]1CC[C@H](CNC(=O)CN2CCN(CC(=O)O)CCN(CC(=O)O)CCN(CC(=O)O)CC2)CC1)C(=O)O)C(=O)O", "system": "male BALB/c nude mice, LS174T-PSMA xenografts, blood", "setting": "intravenous, 0.3 nmol, 2 h, radiolabelled (111In or 99mTc)", "scale": "baseline: tumour over blood", "quantity": "tumour-to-tissue ratio", "result": "424 ± 174"}
{"Structure (SMILES)": "COc1ccc([C@@H](O)c2cc(-c3ncnc4cc(N5CCOCC5)ccc34)c(F)cc2Cl)nn1", "system": "human, plasma", "setting": "oral, 250 mg twice daily, single dose, geometric mean", "quantity": "AUC(0-12)", "result": "7550 ng·h/mL"}
{"Structure (SMILES)": "O=C1Cc2cc(CCN3CCN(c4nsc5ccccc45)CC3)c(Cl)cc2N1", "system": "male Hartley guinea pig, anaesthetized", "setting": "intravenous, 1 mg/kg, baseline before infusion", "quantity": "QTc interval", "result": "369 ± 0.2 ms"}
{"Structure (SMILES)": "CC#CC(=O)N1CC[C@@H](n2c(=O)n(-c3ccc(Oc4ccccc4)cc3)c3c(N)ncnc32)C1", "system": "human, fasting, plasma", "setting": "oral, 160 mg once daily, cycle 1 day 1", "quantity": "Tmax, median", "result": "2.85 h"}
{"note": "Excerpt of the above:"}
{"Structure (SMILES)": "CNC(=O)c1ccc(-c2cnc3ncc(Cc4ccc5ncccc5c4)n3n2)cc1F", "test": "measured: Dyspnea, all grades", "system": "cancer patients", "setting": "oral, dose not given, dose escalation, any causality", "quantity": "patients with adverse event", "result": "13%"}
{"Structure (SMILES)": "Cc1ccc([C@@H]2O[C@H](CO)[C@@H](O)[C@H](O)[C@H]2O)cc1Cc1ccc(-c2ccc(F)cc2)s1", "system": "Japanese type 2 diabetes patients", "setting": "200 mg, day 5, 24 h urine collection", "scale": "baseline: baseline", "quantity": "urinary chloride excretion change", "result": "-14.8 mEq"}
{"Structure (SMILES)": "CCn1cc(C(=O)N2CCOCC2)c(=O)c2cc(NC3Cc4ccccc4C3)cnc21", "system": "human, fed", "setting": "oral suspension, 300 mg/day twice daily, day 8, arithmetic mean", "quantity": "AUC(0-12)", "result": "9900 ng·h/mL"}
{"Structure (SMILES)": "COc1nnc2ccc(N3CCC(c4ccc(OCCN5CCN(C)C(=O)[C@H]5C)cc4)CC3)nn12", "system": "cancer patients, urine", "setting": "oral, dose not given, time not given", "scale": "baseline: dose", "quantity": "urinary recovery of unchanged drug", "result": "< 2%"}
